Experimental data collected from several papers.
A part holds a random share of what one study measured. Substitutions count along the parent as printed.

Sample 1 — target: CCNB1, cyclin fold, Cln2 fusion (human); method: yeast growth competition, sequencing; medium: yeast; setting: weak parent motif; baseline: not given; direction: higher = stronger binding
Starting sequence: SCAPER docking peptide (human); SNARRSLNFGGST
For `R4G`, “normalised enrichment score” read 0.63.
For `R4P`, “normalised enrichment score” read -0.544.
`G11N` — result for “normalised enrichment score”: 0.0512.
Under “normalised enrichment score”, `R5H` is recorded as 0.584.
`G11Q` — result for “normalised enrichment score”: 0.201.
Under “normalised enrichment score”, `L7H` is recorded as 0.815.
`S12V`: “normalised enrichment score” 0.18.
Under “normalised enrichment score”, `S12D` is recorded as 0.777.
For `G10R`, “normalised enrichment score” read 0.27.
`G11E` — result for “normalised enrichment score”: 0.583.
For `L7V`, “normalised enrichment score” read 0.00201.
`N8P` — result for “normalised enrichment score”: 0.477.
For `G11V`, “normalised enrichment score” read 0.533.
`N8D` — result for “normalised enrichment score”: 0.679.
Under “normalised enrichment score”, `A3E` is recorded as 0.244.
`S12G` — result for “normalised enrichment score”: 0.783.
`R4L`: “normalised enrichment score” -0.227.
`S1V` — result for “normalised enrichment score”: 0.735.
`F9T`: “normalised enrichment score” 0.66.
`S12N` — result for “normalised enrichment score”: 0.996.
Under “normalised enrichment score”, `A3W` is recorded as 0.38.
For `F9Y`, “normalised enrichment score” read 0.401.
`S1E`: “normalised enrichment score” -0.431.
`A3D` — result for “normalised enrichment score”: -0.106.
`S1M`: “normalised enrichment score” -0.114.

Sample 2 — method: protein-binding microarray; form: double-stranded DNA, one strand shown; medium: in vitro; tested at: 2540 nM top; setting: 60-bp whole probe; added: salmon DNA 0.4 mg/ml; baseline: random background probes; direction: higher = stronger binding; all sequences stand within: GCCTAGCAC … GTCTTGATTCGCTTGACGCTGCTG
Target: Interferon regulatory factor 3, full length, phosphomimetic (IRF3, Homo sapiens, UniProt Q14653, residues 1-427, S386D/S396D/S398D/S402D/T404D/S405D)
Residues (chain): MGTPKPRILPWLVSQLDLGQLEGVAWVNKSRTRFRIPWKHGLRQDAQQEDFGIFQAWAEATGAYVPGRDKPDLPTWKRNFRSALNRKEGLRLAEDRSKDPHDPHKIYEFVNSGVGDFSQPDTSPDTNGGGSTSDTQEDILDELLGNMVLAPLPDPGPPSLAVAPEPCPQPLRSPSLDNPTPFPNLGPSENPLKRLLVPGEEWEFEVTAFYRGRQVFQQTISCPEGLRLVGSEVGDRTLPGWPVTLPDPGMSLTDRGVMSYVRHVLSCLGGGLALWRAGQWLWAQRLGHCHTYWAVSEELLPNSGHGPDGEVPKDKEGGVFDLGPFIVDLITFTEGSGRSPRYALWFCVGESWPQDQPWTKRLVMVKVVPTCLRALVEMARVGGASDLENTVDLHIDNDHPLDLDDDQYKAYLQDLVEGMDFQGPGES
`TCATTTCCATTTTCTGAAACTGTGCTA` — result for “fitted relative affinity”: 5.08 z-score.
Under “fitted relative affinity”, `GAGGGTTTCGACACTGGGGACGTGCTA` is recorded as 1.32 z-score.
`TTATATCTCAGACTGGATTAGTGCTAG` — result for “fitted relative affinity”: 0.473 z-score.
Under “fitted relative affinity”, `TTAGGTCTCTTTCTCCTTTAGTGCTAG` is recorded as 2.34 z-score.
`GACGAACTGGGGTTTCGAGAGGTGCTA`: “fitted relative affinity” -0.0243 z-score.
For `TTAGTTTTCGGGACTGGATTAGTGCTA`, “fitted relative affinity” read 2 z-score.
Under “fitted relative affinity”, `GACGGGTTCCTTCTCCTGACGTGCTAG` is recorded as 4.3 z-score.
For `GAGGGTCTCCTACTGCTGACGTGCTAG`, “fitted relative affinity” read 0.0392 z-score.
`GACGATATCAGACTTGAGACGTGCTAG` — result for “fitted relative affinity”: 0.731 z-score.
For `TTCGGTTCCCTTTTCCTTTAGTGCTAG`, “fitted relative affinity” read 7.19 z-score.
`TTTGGTTCCGGTTTCGGTTAGTGCTAG` — result for “fitted relative affinity”: 7.79 z-score.
For `GACGGTATCGGTAACGGGACGTGCTAG`, “fitted relative affinity” read 2.03 z-score.
For `GACGATATCGGGAGTGGAGACGTGCTA`, “fitted relative affinity” read -0.0277 z-score.
For `AATCATTCACCTGTCGTTGAGTGCTAG`, “fitted relative affinity” read 0.48 z-score.
`TCAATTTTTAGGATGGGACTGTGCTAG` — result for “fitted relative affinity”: -0.0861 z-score.
`TCATTTTTTTTATTTATACTGTGCTAG` — result for “fitted relative affinity”: 1.31 z-score.
`TTAGGTATCCACTTTCGGTTAGTGCTA`: “fitted relative affinity” 3.45 z-score.
Under “fitted relative affinity”, `GACGATCTCAGACGGGAGACGTGCTAG` is recorded as 0.283 z-score.
`ACTCAGCTCCTCTTCCAGGCGTGCTAG`: “fitted relative affinity” 0.26 z-score.
For `GACGGTATCGACTATTGGGACGTGCTA`, “fitted relative affinity” read 0.414 z-score.
Under “fitted relative affinity”, `TTAGCTATCAGTTTCGATTAGTGCTAG` is recorded as 4.44 z-score.

Sample 3 — method: RNA Bind-n-Seq; form: RNA; medium: in vitro; tested at: 100 nM; baseline: input RNA pool; direction: higher = stronger binding
Target: RING finger protein unkempt homolog, zinc fingers 1-6, SBP tag (UNK, Homo sapiens, UniProt Q9C0B0, residues 30-357)
UniProt Q9C0B0, sequence (30-357, looked up): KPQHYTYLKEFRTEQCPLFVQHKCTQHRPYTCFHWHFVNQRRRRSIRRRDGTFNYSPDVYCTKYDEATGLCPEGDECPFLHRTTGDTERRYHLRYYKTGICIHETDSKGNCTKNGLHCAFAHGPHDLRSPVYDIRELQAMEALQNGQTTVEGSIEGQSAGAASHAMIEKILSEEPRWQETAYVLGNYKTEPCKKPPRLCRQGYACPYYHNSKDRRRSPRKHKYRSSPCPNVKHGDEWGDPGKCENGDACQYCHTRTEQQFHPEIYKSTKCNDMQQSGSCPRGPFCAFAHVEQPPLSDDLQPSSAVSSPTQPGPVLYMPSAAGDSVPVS
Setting: RNA with constant flanks, vertebrate orthologous sites, ends assumed
All sequences stand within: GGGAGUUCUACAGUCCGACGAUC … CAACAGAGGAUUGAGCAUCA
For `GUUGUGACCCAUUUAACAUUCACAAAAAACUAGCCAAAAAAAAUUUGCAUGUAAUUGACUUAGAUGAUGCCACUUUCCUGAGUGCAAAAUUUGGAAGACAGCUUGUACCUGGUUGGAAGC`, the bound/input enrichment was 1.46 ratio.
`UCCUUAACUUGUUCUAGCUUGUGAUCCUUUAAAGUUGGAUCAUACAUUAGUGCUAGAUACUAGAAAUUUCACUUCUCUGUUUCCAGUGAUCAGAGAAACAGACAUUAAAAACAGGAAUAU` gave a bound/input enrichment of 0.615 ratio.
`AUUUUUUUAAGUUUUUUUAAUUUAAUUUUUCCUUUUGGGGGUAAAGUUUGCUCUACCAAAUAGUGAUUGUAACAAAUUGAUCUGUUUUGGAUGUUGCUAUAGUGACAUGCAGUUAUAUAU` gave a bound/input enrichment of 0.538 ratio.
With `CUGUUUUGUGAAACAUGUCUACCCAGAAAAGUAGCAUUCUAUGAAUACUAUUAAACAACUUAGCUAUAUUAUUUUUAACUAUUAAAUUAUAUGUCAAGCAGUUAAAGUGAAUUUCAGAGU` the bound/input enrichment was 0.57 ratio.
`UCCUCAACUUGUUCUAGCUAGUGAUCCUUCAAAGUUGAGUCAGGCAUUGAUAGUAGGUAUUAGAUGCUUUCAUUUCUUUGUUGCCACUGAUCAGAUAAACAGGCGUUAAAAACAGGAAUA` gave a bound/input enrichment of 0.636 ratio.
`UAAUUUCAGGAUGAAGCUCUUACAUGAGGUGGCACGAGUCUGGAAAACAGAUGGGUUAACUAGUUGUUCUUAUAAAUUACUGUCUGUGGAACACAAUCCUUUAUAUAUCAACAUCACAGU` gave a bound/input enrichment of 1.06 ratio.
The bound/input enrichment of `AAAAUUCAAUAGAAUUACACUAAUACUGAAGUUCCAGUUGAAAGGAUAUCCAAGUGUGUGUUGGUAGUUACUAAAAGAAUUAUAGCUGUUAUUGCCUUGUAUUUAUAUCCCUUGUUUCAG` is reported as 0.816 ratio.
`UUCAGGCACAACUGACUGGUUCACAGCAUUCCUUACAUAGUUAUCUAUCAAAUGCAAGUGUAGGUAAUUUUCAGGAAACAACCAGGCAGUCACCUUUGUCCUGUAGUUCAAUUGGAGAGU` gave a bound/input enrichment of 0.983 ratio.
For `CUUUUUUUUUUUUGUUUUUUUUUGUUUUUUGGUUUUUGGGUUUUUUUUUCGGUUUUUUGGUAGUUGUUGUUACCCACGCCAUUUUACGUCUCCUUCACUGAAGGGCUAGAGUUUUAACUU`, the bound/input enrichment was 2.79 ratio.
For `GGGCGACUUUGGGCGUCCGCACAGCCGGCGGGGUGACAGCUCGGUCUCGUCCCGGCGGCUUUGCUCUCCUCGCGUGGCCGCGCGUCUCCGCAGACAUGUUCCGCCUGAUCGUCUCCCAGG`, the bound/input enrichment was 0.385 ratio.
The bound/input enrichment of `UUUUAUUGAUCAGGUCUGUAAAUGUGUACUAAAAAAAUCAGAGUUUAUUUAUAAACAAAAUAGUUUAUUUAAAGAGAAGGUCUCUUCCUUAUUGAUAUCAUGGUAUGCAUUAAUUCCAUU` is reported as 0.248 ratio.

Further values, each from its own experiment
`PhoQ, residues 284 288 289 292 302 303 ALASRC` gave a fold induction of 2.66 (PhoP, residues 12 14 15 18 19 NHTVL (Escherichia coli, UniProt P23836); Sort-seq, measured: YFP reporter; E. coli; PhoQ-PhoP variant library, added: 10 µM Mg2+; baseline: high Mg2+ state, higher = stronger signaling).

Repeated from above (sample 3):
`UCCUUAACUUGUUCUAGCUUGUGAUCCUUUAAAGUUGGAUCAUACAUUAGUGCUAGAUACUAGAAAUUUCACUUCUCUGUUUCCAGUGAUCAGAGAAACAGACAUUAAAAACAGGAAUAU` gave a bound/input enrichment of 0.615 ratio.
`AUUUUUUUAAGUUUUUUUAAUUUAAUUUUUCCUUUUGGGGGUAAAGUUUGCUCUACCAAAUAGUGAUUGUAACAAAUUGAUCUGUUUUGGAUGUUGCUAUAGUGACAUGCAGUUAUAUAU` gave a bound/input enrichment of 0.538 ratio.
With `CUGUUUUGUGAAACAUGUCUACCCAGAAAAGUAGCAUUCUAUGAAUACUAUUAAACAACUUAGCUAUAUUAUUUUUAACUAUUAAAUUAUAUGUCAAGCAGUUAAAGUGAAUUUCAGAGU` the bound/input enrichment was 0.57 ratio.
`UCCUCAACUUGUUCUAGCUAGUGAUCCUUCAAAGUUGAGUCAGGCAUUGAUAGUAGGUAUUAGAUGCUUUCAUUUCUUUGUUGCCACUGAUCAGAUAAACAGGCGUUAAAAACAGGAAUA` gave a bound/input enrichment of 0.636 ratio.
`UAAUUUCAGGAUGAAGCUCUUACAUGAGGUGGCACGAGUCUGGAAAACAGAUGGGUUAACUAGUUGUUCUUAUAAAUUACUGUCUGUGGAACACAAUCCUUUAUAUAUCAACAUCACAGU` gave a bound/input enrichment of 1.06 ratio.
The bound/input enrichment of `AAAAUUCAAUAGAAUUACACUAAUACUGAAGUUCCAGUUGAAAGGAUAUCCAAGUGUGUGUUGGUAGUUACUAAAAGAAUUAUAGCUGUUAUUGCCUUGUAUUUAUAUCCCUUGUUUCAG` is reported as 0.816 ratio.
`UUCAGGCACAACUGACUGGUUCACAGCAUUCCUUACAUAGUUAUCUAUCAAAUGCAAGUGUAGGUAAUUUUCAGGAAACAACCAGGCAGUCACCUUUGUCCUGUAGUUCAAUUGGAGAGU` gave a bound/input enrichment of 0.983 ratio.
